Results gathered from unrelated publications.
Each numbered part is a random draw from the data of one study; scales do not carry over between parts.

Set 1
Target: RNA binding protein fox-1 homolog 2, RRM domain, GST-SBP tag (RBFOX2, Homo sapiens, UniProt O43251-10, residues 100-194)
Technique: RNA Bind-n-Seq
Molecule type: RNA
Matrix: in vitro
Concentration: 365 nM
Setting: natural RNA segment, single round, ends assumed
Baseline: no-protein control
Direction: higher = stronger binding
Target sequence (chain): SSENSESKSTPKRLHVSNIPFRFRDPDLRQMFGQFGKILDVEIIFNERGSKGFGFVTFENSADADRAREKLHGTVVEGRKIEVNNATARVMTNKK
Strand	RBNS enrichment (R)
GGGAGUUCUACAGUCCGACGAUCUUUUGACUAAUUAGAAAUUCAGGCUGCUUGGGAUAAUGAGACAAGGACCAGAACCUCCUCCCCACCUGUGGCCUGGCCAAAACCCCCACUUGUGGUCUGAAUGUUCUCCUUGGAAUUCUCGGGUGCCAA	0.432
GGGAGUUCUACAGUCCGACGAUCGUGCUGCCUGAGAUGGCACCUCCCUUUCAGCCAUUCUUCAAGAAUGGGCCACACACAGCUAGAAGUCCUCUCCCAGCUAGAAGUCCUGUCCCCACUCUCCUGGCCUGACAUGGAAUUCUCGGGUGCCAA	0.304
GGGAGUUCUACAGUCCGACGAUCGGUGUGACAGCAUGACAGGUUUGCUCUGCUUCUGCAGAGUGGGCCCCAGAGGUCACUUAGGACUGAGAUGCUCCAAAGUUUGAAGUGCCAAAUAACAUGAAACGUGCUCUUGGAAUUCUCGGGUGCCAA	9.71
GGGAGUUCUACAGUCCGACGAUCCUUGCUUUUGGAGGUUGUUUUGGGGAAAAAACAGUUUAUAUAAACUGAUUUUUGUAGUUUUGGUAUUUAAAGCAAAAACAAACAAAAAACAAACCCCUUUUUGGUACCUGUGGAAUUCUCGGGUGCCAA	0.253
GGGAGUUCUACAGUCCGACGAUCUGCGAAAGAUGGCUACCUGGGGGGCUGCGGGGCUUGGGGGAGUUUACAAUCCCAUCCUAUGGCCUGCAGCCAGGCUGACAGCCUCUCCCCGAACCAUGCAUCCAAGUGCAUGGAAUUCUCGGGUGCCAA	0.269
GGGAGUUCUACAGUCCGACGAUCGGCAAAGGUCACAGUGAUGCAAAAGACAAAACUGAUGUCCUUAUCCUUAGACAAUUAACCACCAAAUUCCCUGGGGUUCAUUGCCAUGCAGUUCAUUUCCCACUAACCAUUGGAAUUCUCGGGUGCCAA	0.236
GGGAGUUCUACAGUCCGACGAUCCUACUUCUGUGUCUGUGCUAUGUGGGGGUGCAACUUCUGCCUGGUGGUUUGUGACAUGGCAGAUCAGAAGUGCCUCCUUGUAGGUUCAUUGGUCUCUGGAAUAAGUGCCAUGGAAUUCUCGGGUGCCAA	15.9
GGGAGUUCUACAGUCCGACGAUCCAUGAAGCCUUGCUGAACUAAGUUUUGUGUGUAUAUAUUUAAAAAAAAAAUCAGUGUUUAAAUAAAGACCUAUGUACUUAAUCCUUUAACUCUGCGGAUAGCAUUUGGUAUGGAAUUCUCGGGUGCCAA	1.81
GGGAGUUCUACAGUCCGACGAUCAAUAAUAGACUGUUUCAUUGAAAGAAUGAAAAGAGGCCAGGUGAAGUAGUAAUUUAUAAAUUUAGUAUUUGCAGUGGUUCACGCCUGUAAUCCCACCACUUUGGGAGGCCUGGAAUUCUCGGGUGCCAA	0.429
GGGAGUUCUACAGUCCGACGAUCCCCCUGGUGGCCGUGCCAACAUCACCAGCCUGGGCUAAAGCCCCUAGGCCUGCAGGCCACUUGGGGAUGGGGGAUGGGACACCUGAGGACAUUCUGAGACUUCCUUUCUUUGGAAUUCUCGGGUGCCAA	0.208
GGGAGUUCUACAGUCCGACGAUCCCCCUCUGCCUUCCUCCCCAAUCCUGACUGGCUCCUAGGGAAGGGGAAGGCUCCUGGAGGGCAGCCCUACCUCUCCCAUGCCCUUUGCCCUCCUCCCUCGCCUCCAGUGGUGGAAUUCUCGGGUGCCAA	0.585
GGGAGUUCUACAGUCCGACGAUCGUGCAUUGGGAAGGAUCUUUACUGCUUUGUGCUUGGCAUGUCAUUAUUUUCCAUUUGACAUUAGGGCCUUUCCAAAAUGAAUGUGAGGAAUUGCUUUCACUUCAAGACUUUGGAAUUCUCGGGUGCCAA	0.806

Set 2
Target: Ras GTPase-activating protein-binding protein 1, full length (G3BP1, Homo sapiens, UniProt Q13283)
Sequence of UniProt Q13283 (whole entry, looked up): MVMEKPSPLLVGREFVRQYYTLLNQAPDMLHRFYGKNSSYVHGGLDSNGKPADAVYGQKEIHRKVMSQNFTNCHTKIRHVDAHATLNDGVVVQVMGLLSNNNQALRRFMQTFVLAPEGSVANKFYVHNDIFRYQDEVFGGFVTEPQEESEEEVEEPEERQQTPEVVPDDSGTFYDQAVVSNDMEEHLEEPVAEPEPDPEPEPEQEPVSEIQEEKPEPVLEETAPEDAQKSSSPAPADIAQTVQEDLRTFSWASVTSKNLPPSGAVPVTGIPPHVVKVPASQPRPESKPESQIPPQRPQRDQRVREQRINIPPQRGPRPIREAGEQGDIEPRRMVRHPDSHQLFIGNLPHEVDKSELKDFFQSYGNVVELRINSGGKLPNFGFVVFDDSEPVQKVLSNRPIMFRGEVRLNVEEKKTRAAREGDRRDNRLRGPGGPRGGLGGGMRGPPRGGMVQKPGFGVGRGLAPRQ
Technique: RNA Bind-n-Seq
Molecule type: RNA
Matrix: in vitro
Concentration: 200 nM
Setting: whole 134-nt RNA, ends assumed
With: 150 mM LiCl
Baseline: input library
Direction: higher = stronger binding
Library: 7-deaza-guanosine replaces G
Strand	log2 enrichment
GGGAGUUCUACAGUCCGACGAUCCACAGACAACACGCACCCACACAGACACAGAGGGAAGGGGUUGGGAUGGGGACAGGGUGCACAGCAGGGCGGGGUCGGACCCCAGCCCCUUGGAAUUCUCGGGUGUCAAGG	1.06
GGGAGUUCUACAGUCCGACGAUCUGGCCCUGGUGGCAUGCGGGGAGGAAGAGGUGGCCUCAUGGAUCGUGGUGGUCCCGGUGGAAUGUUCAGAGGUGUCCGUGGUGGAGACAGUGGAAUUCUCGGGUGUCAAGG	-0.178
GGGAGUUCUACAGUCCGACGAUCCAAGUCCUGUGCUACACAUCGUAUGUACCGAAUCGGUUUUUGGAAAGGAAAAAGGAAAGUAUUAUGUUACGCCGUUCGGAUCUGCACUUCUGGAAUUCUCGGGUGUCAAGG	-0.613
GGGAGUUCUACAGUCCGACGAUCCCUGUGCUACACAUCGUAUGUACCGAAUCGGGGAAAAAGGGGUUUUUGGGGAAAAAGGGGAAAGUAUUAUGUUACGCCGUUCGGAUCUGCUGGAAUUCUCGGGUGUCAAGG	0.402
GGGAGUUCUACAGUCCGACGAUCUCCUCAAGUCCUGUGCUACACAUCGUAUGUACCGAAUCGGGAGGAGGGAGGAAAGUAUUAUGUUACGCCGUUCGGAUCUGCACUUCCAGCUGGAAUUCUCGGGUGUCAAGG	-1.26
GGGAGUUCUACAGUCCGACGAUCAAGUCCUGUGCUACACAUCGUAUGUACCGAAUCGGAAAAGGGAAAAGGGGAAAAGGAAAGUAUUAUGUUACGCCGUUCGGAUCUGCACUUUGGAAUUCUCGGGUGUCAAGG	-0.167
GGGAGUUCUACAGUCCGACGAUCUCCUGUGCUACACAUCGUAUGUACCGAAUCGGGAAAAAGGGAAAAAAAGGGUUUUUGGGAAAGUAUUAUGUUACGCCGUUCGGAUCUGCAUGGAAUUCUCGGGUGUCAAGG	-0.911
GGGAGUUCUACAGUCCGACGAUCGUCCUGUGCUACACAUCGUAUGUACCGAAUCGGGGAAAAAGGGAAAAAGGGAAAAAGGAAAGUAUUAUGUUACGCCGUUCGGAUCUGCACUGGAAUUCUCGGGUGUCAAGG	-0.19
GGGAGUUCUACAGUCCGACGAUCACCAUGCAGGUGGGCAUCUUUGGGAAGUGGGGCAAGGGGGGGAUAGGGAGGGGGGUAACACUUUGGGAACAGGUGGUCCCAGGUCAAAUCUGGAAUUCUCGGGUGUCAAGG	0.1
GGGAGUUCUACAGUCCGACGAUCCACAGACAACACGCACCCACACAGACACAGAGGGAAGGCGUUGGGAUGGGGACAGGGUGCACAGCAGGGCGGGGUAGGACCCCAGCCCCUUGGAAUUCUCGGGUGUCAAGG	-1.66
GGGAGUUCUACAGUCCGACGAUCCAAGUCCUGUGCUACACAUCGUAUGUACCGAAUCGGGAAAAAGGGAGGGUUUGGGAAAGUAUUAUGUUACGCCGUUCGGAUCUGCACUUCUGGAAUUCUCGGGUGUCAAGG	-0.762

Set 3
Target: Sal-like protein 4, full length isoform A (SALL4, Homo sapiens, UniProt Q9UJQ4, residues 1-1053)
Sequence of UniProt Q9UJQ4 (whole entry, looked up): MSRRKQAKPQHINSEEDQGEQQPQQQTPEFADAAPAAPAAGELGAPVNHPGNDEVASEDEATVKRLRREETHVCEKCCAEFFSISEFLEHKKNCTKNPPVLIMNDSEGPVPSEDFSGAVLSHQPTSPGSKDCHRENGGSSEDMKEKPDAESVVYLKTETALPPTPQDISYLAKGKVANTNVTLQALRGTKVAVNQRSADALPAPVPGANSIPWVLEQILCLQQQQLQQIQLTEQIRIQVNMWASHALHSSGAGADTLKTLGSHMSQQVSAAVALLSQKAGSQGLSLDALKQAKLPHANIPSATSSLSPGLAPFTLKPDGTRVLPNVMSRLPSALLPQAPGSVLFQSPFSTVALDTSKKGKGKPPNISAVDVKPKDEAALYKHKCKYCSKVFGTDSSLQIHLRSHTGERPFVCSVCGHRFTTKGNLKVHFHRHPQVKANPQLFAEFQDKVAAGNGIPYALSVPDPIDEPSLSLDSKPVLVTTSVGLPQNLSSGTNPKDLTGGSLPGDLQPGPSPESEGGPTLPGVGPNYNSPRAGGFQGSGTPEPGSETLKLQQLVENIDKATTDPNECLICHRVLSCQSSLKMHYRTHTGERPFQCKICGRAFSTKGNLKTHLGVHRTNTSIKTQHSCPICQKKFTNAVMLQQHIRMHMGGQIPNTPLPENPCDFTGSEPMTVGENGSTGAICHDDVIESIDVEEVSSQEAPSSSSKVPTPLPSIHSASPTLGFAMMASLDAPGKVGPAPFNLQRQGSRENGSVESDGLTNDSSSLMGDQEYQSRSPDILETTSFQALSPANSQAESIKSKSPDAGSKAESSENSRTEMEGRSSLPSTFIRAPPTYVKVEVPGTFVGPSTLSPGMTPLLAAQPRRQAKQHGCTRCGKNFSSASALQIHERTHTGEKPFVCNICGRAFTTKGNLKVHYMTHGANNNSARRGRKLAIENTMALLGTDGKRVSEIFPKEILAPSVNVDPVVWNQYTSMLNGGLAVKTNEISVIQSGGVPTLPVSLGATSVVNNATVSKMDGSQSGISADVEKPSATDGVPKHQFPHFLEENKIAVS
Technique: universal PBM
Molecule type: double-stranded DNA, one strand shown
Matrix: in vitro
Concentration: 600 nM
Setting: 8-mer, flanks averaged, mean of replicates
Direction: higher = stronger binding
Strand	E-score
ACCTTCTG	0.0253
AGCTTCTA	0.0356
ATCTCGGG	-0.256
GCGCACGC	-0.317
ATCAAGGA	0.149
ACAGGAGG	-0.235
CGATCCTA	-0.135
AAGTTAAT	0.287
ACTGTGAG	-0.0158
GCAGCTCC	-0.259
ATGTTTAG	0.206
AGAGTTGG	-0.098
CCCTACAC	-0.0111
AGTGTGTA	0.0808
ACTGACTC	-0.128
AACGGATA	0.088
ATGGCTCA	-0.0664

Set 4
Target: Histone acetyltransferase KAT6A, both winged helices, GST fusion (KAT6A, Homo sapiens, UniProt Q92794, residues 1-181)
Technique: protein binding microarray
Molecule type: double-stranded DNA, one strand shown
Matrix: in vitro
Concentration: not given
Setting: 8-mer, flanks averaged, mean of 2 arrays, mostly near background
Baseline: not given
Direction: higher = stronger binding
Residues (chain): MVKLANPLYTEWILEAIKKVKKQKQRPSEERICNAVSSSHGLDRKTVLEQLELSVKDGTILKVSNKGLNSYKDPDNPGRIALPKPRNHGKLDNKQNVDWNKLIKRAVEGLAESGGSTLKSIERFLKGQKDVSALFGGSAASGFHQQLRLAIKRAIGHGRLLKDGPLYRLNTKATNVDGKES
Strand	E-score
AACCGAAT	0.0548
AAAAAGCA	-0.185
ATCGTTCG	0.077
AGATTTAA	-0.0125
AACACCTT	-0.0741
CGCTAGAG	0.201
GAGTTGGA	-0.196
CGGAGTAG	0.0771
ATACCCTC	-0.0853
CAGTGATA	-0.152
GTCCCTTA	0.0563
CTAGTATA	0.0402
GTATGAGA	-0.0569
ATTCCATA	-0.0425
ACAACTCT	-0.271
ATCGCGCG	0.338
AGTAGATG	-0.0816
CTTCGACA	-0.0811
AATCGCAA	0.133
GCTAAACC	0.0506
AACTGAGC	0.0177
ACGCTCCC	0.0902
GTCTGTAA	0.017
AACATCCT	0.117
CACGGCAG	0.209
